Measured values of several laboratories.
Each numbered part is a random draw from the data of one study; scales do not carry over between parts. “And” joins repeats or separate records; there may be more than shown.
UniProt P11802, sequence (whole entry, looked up): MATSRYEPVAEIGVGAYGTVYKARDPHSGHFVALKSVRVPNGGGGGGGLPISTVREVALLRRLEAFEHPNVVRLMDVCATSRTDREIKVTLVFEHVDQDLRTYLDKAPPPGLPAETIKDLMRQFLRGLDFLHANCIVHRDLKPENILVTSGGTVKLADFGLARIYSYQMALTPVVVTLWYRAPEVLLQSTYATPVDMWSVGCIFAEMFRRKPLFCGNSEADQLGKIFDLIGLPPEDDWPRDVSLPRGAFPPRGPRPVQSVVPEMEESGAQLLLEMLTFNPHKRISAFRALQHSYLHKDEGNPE
UniProt P17948, sequence (whole entry, looked up): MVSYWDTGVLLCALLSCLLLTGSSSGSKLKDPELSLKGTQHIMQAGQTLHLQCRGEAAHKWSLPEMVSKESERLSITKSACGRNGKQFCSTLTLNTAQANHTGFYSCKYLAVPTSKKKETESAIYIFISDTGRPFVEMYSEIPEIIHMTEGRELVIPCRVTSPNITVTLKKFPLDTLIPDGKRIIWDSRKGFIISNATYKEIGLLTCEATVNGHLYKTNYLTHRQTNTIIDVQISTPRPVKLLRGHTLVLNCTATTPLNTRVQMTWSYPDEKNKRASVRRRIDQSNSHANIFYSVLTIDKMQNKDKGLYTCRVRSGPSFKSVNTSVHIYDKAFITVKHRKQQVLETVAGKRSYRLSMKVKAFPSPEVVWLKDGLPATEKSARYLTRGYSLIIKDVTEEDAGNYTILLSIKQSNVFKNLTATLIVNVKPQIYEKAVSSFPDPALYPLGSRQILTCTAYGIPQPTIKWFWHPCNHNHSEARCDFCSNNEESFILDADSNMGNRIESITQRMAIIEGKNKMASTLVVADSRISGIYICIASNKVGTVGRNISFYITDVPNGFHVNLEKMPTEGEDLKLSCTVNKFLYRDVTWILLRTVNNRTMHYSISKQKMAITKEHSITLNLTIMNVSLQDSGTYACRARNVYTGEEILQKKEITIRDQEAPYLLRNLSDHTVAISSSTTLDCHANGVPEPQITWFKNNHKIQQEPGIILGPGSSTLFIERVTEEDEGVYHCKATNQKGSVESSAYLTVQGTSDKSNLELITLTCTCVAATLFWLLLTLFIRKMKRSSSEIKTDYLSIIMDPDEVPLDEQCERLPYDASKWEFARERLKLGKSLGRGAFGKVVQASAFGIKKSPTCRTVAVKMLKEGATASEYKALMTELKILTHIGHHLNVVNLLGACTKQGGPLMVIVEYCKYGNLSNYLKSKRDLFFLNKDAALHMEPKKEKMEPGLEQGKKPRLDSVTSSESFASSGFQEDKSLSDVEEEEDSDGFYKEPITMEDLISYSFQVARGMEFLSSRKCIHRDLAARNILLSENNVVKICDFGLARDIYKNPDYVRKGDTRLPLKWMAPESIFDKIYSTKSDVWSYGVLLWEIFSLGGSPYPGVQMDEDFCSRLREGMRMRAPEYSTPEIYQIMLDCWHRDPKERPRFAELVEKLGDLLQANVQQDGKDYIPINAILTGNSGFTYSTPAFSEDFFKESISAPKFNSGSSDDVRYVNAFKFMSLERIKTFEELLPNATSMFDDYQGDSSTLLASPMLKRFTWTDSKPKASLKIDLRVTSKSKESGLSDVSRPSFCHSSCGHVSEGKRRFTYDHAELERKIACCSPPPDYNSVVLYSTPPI
UniProt Q8TD08, sequence (whole entry, looked up): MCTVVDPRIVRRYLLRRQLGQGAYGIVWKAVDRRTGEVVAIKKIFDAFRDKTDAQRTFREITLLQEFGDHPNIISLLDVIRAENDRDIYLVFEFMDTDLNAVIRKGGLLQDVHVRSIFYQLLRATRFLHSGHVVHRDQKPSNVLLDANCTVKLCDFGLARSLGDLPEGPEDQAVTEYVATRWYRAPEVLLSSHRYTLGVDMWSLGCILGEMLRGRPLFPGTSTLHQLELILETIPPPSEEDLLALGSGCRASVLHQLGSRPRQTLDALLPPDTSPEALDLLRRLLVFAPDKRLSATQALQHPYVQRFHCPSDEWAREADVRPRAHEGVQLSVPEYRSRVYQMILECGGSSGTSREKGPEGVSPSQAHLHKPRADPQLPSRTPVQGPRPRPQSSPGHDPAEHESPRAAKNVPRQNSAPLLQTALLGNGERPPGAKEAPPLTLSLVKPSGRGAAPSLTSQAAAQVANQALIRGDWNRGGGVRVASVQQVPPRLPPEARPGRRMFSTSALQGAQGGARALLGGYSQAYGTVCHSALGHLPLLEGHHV
UniProt O15111, sequence (whole entry, looked up): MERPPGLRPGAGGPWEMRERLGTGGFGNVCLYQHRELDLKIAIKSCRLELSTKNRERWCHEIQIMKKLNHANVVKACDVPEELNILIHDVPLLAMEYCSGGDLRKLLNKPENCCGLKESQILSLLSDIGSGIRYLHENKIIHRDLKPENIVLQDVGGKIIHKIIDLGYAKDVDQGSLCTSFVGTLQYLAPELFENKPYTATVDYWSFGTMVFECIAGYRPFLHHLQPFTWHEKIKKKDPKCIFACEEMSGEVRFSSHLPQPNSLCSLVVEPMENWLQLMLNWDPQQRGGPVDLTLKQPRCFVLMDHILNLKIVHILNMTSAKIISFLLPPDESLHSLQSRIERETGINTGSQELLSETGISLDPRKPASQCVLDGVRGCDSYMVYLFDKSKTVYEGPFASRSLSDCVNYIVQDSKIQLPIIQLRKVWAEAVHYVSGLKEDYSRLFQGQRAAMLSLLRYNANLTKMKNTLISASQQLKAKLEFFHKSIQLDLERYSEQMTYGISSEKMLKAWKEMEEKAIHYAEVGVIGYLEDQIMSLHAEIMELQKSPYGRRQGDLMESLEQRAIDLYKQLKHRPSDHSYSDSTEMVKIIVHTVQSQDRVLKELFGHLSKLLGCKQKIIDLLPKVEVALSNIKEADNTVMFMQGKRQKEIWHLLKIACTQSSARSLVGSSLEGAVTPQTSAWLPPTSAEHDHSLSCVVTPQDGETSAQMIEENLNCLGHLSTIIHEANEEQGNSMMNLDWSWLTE
UniProt Q13177, sequence (whole entry, looked up): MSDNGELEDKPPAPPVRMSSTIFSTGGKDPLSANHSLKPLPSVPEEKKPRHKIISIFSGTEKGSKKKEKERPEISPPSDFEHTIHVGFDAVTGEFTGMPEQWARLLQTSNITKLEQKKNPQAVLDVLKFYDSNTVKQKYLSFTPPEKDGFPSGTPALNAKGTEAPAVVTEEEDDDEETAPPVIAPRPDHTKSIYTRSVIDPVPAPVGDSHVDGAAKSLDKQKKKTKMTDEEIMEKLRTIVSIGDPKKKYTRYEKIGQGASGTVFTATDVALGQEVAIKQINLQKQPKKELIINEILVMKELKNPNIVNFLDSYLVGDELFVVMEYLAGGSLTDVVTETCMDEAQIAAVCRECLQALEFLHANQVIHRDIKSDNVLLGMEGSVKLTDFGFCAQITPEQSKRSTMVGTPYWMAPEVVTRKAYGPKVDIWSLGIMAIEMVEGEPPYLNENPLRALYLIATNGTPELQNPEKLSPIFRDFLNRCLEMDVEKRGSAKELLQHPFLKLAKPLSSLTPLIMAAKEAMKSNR
UniProt P36897, sequence (whole entry, looked up): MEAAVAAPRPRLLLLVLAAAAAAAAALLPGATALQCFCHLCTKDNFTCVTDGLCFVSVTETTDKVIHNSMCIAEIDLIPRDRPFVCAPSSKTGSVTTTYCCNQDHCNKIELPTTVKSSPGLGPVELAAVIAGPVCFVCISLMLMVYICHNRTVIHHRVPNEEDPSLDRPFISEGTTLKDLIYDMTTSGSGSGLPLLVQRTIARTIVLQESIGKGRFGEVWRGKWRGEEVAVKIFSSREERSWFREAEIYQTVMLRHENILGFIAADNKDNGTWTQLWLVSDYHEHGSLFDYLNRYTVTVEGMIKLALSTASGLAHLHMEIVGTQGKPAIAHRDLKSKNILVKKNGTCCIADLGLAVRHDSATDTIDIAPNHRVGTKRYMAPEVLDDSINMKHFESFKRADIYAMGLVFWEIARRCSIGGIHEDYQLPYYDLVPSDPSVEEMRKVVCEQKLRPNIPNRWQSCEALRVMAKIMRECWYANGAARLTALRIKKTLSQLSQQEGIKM

Study 1
Cell line: HaCaT
Tested at: 100 µM
Time: 36 h
SMILES | viability
O=C(O)[C@H]1O[C@H](O)[C@H](O)[C@@H](O)[C@@H]1O | 55.3%
Cc1cc(N)c2ccccc2[n+]1CCCCCCCCCC[n+]1c(C)cc(N)c2ccccc21 | 45.7%
Cc1cnc(C(=O)N[C@H]2CCCCC/C=C\[C@@H]3C[C@@]3(C(=O)NS(=O)(=O)C3CC3)NC(=O)[C@@H]3C[C@@H](Oc4nc5ccccc5c5ccccc45)CN3C2=O)cn1 | 5.75%
Cc1cc2nc3c(=O)[nH]c(=O)nc-3n(C[C@H](O)[C@H](O)[C@H](O)COP(=O)(O)O)c2cc1C | 136%
O=C(Nc1ccc(Cl)cc1)c1cc(Br)ccc1O | 12.5%
Cn1cnc2c1c(=O)[nH]c(=O)n2C | 95%
CC(C)c1nc(N(C)S(C)(=O)=O)nc(-c2ccc(F)cc2)c1/C=C/[C@@H](O)C[C@@H](O)CC(=O)O | 52.6% and 24.7%
CC(=O)c1ccc(S(=O)(=O)NC(=O)NC2CCCCC2)cc1 | 99.9%

Study 2
Structure (SMILES): O=C(NCCCC1CCCCC1)c1ccc(CNC(=O)c2cnn(-c3ccccc3)c2C(F)(F)F)cc1
Observed: cell-free assay
Technique: competition with immobilised ligand
Tested at: 0.1 µM
target | remaining binding [%]
CLK1 (Homo sapiens, UniProt P49759) | 96
Cyclin-dependent kinase 4, with cyclin D1 (CDK4, Homo sapiens, UniProt P11802) | 100
TLK1 (Homo sapiens, UniProt Q9UKI8) | 100
MAPK15 (Homo sapiens, UniProt Q8TD08) | 100
CDK13 (Homo sapiens, UniProt Q14004) | 100
CDK11B (Homo sapiens, UniProt P21127) | 100
CHUK (Homo sapiens, UniProt O15111) | 100
RIPK2 (Homo sapiens, UniProt O43353) | 97
FLT1 (Homo sapiens, UniProt P17948) | 100
RET (Homo sapiens, UniProt P07949, V804L) | 100
TSSK3 (Homo sapiens, UniProt Q96PN8) | 100
STK33 (Homo sapiens, UniProt Q9BYT3) | 87
LRRK2 (Homo sapiens, UniProt Q5S007, G2019S) | 100
CDK4 (Homo sapiens, UniProt P11802) | 96
ALK (Homo sapiens, UniProt Q9UM73, C1156Y) | 100
Mast/stem cell growth factor receptor Kit, autoinhibited (KIT, Homo sapiens, UniProt P10721) | 100
PIK3CA (Homo sapiens, UniProt P42336, E545A) | 100
BUB1 (Homo sapiens, UniProt O43683) | 100
ACVR2B (Homo sapiens, UniProt Q13705) | 96
CHEK2 (Homo sapiens, UniProt O96017) | 100
MAP3K1 (Homo sapiens, UniProt Q13233) | 65
TGFBR1 (Homo sapiens, UniProt P36897) | 89
PAK2 (Homo sapiens, UniProt Q13177) | 100
CAMK1D (Homo sapiens, UniProt Q8IU85) | 100
HUNK (Homo sapiens, UniProt P57058) | 100

Study 3
Target: Activated CDC42 kinase 1 (TNK2, Homo sapiens, UniProt Q07912)
UniProt Q07912, sequence (whole entry, looked up): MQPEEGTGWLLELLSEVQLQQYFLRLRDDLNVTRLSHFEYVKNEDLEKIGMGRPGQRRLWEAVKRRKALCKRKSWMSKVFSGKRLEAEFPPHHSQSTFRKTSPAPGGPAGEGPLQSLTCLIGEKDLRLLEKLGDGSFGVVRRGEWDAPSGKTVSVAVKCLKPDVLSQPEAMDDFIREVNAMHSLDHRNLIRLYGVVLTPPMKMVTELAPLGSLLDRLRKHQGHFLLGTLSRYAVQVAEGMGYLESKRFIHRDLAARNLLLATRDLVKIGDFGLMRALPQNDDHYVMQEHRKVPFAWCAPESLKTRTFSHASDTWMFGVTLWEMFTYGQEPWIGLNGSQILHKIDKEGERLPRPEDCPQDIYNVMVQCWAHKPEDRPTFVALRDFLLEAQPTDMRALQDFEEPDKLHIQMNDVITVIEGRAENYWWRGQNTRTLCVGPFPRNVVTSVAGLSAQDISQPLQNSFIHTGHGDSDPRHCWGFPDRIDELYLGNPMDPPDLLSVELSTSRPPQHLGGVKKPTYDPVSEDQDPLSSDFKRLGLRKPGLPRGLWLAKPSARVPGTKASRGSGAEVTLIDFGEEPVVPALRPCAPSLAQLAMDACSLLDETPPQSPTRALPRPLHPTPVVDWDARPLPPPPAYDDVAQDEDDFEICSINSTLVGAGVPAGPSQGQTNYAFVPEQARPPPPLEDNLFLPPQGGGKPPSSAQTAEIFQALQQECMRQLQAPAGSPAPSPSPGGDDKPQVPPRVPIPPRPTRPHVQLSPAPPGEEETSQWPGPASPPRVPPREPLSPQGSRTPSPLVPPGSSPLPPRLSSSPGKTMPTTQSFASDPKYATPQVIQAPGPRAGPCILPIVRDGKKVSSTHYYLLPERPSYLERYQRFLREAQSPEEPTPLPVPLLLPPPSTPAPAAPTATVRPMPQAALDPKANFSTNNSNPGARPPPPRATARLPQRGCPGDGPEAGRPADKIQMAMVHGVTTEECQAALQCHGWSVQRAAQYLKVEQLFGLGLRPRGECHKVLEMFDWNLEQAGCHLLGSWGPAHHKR
Observed: enzyme activity
Mode: inhibitor
Tested at: 0.5 µM
Baseline: control
Structure (SMILES) | remaining activity
Cc1nc(-c2ccccc2)c(-c2ccncc2)o1 | 97.7%
O=C1NC(=O)C(c2cn(CCCn3ccnc3)c3ccccc23)=C1Nc1ccccc1 | 65.9%
CO[C@H]1C[C@@H]2CC[C@@H](C)[C@@](O)(O2)C(=O)C(=O)N2CCCC[C@H]2C(=O)O[C@H]([C@H](C)C[C@@H]2CC[C@@H](O)[C@H](OC)C2)CC(=O)[C@H](C)/C=C(\C)[C@@H](O)[C@@H](OC)C(=O)[C@H](C)C[C@H](C)/C=C/C=C/C=C/1C | 98.5%
O=C(O)c1ccc2c3c1cccc3c(=O)n1c3ccccc3nc21 | 101%
COc1cc2ncnc(Nc3ccc(F)c(Cl)c3)c2cc1OCCCN1CCOCC1 | 72.8%
COc1cc2ncnc(Nc3ccc(Oc4ccccc4)cc3)c2cc1OC | 49%
COc1ccc(C(=O)Nc2sc3c(c2C(N)=O)CCCC3)cc1OC | 93.4%
Cn1sc(=O)n(Cc2ccccc2)c1=O | 101%
O=S(=O)(c1cccc2cnccc12)N1CCCNCC1 | 89.4%
COc1cc2nccc(Oc3ccc(NC(=S)NC(=O)c4ccccc4C)cc3)c2cc1OC | 26.9%
OCC(O)CCON=C1C(c2c(O)[nH]c3ccccc23)=Nc2ccccc21 (stereo not shown) | 4.93%
O=c1c2ccccc2[nH]c(=S)n1CCN1CCC(=C(c2ccc(F)cc2)c2ccc(F)cc2)CC1 | 105%
Nc1ccc2ncnc(NCCc3ccc(Oc4ccccc4)cc3)c2c1 | 102%
Cc1ccc(NC(=O)c2ccc(CN3CCN(C)CC3)cc2)cc1Nc1nc(-c2cccnc2)cs1 | 95.7%
O=C(CCCc1ccc(-c2ccccc2F)cc1)Nc1ccc(O)cc1 | 99.2%
Cc1ccc(Nc2nccc(N(C)c3ccc4c(C)n(C)nc4c3)n2)cc1S(N)(=O)=O | 90.2%
O=C(Nc1cccc(Nc2cc(Nc3cccc(C(F)(F)F)c3)ncn2)c1)C1CC1 | 98.7%
NCCNc1ncc(C(N)=O)c(Nc2cccc(C(F)(F)F)c2)n1 | 74.5%
Oc1ccc(-c2nc(-c3ccncc3)c(-c3ccc(F)cc3)[nH]2)cc1 | 83.2%
CNC(=O)c1cc(Oc2ccc(NC(=O)Nc3ccc(Cl)c(C(F)(F)F)c3)cc2)ccn1 | 97.6%

Study 4
Cell line: mouse MPNST tumor cells
Technique: high-content nuclear imaging
Measured: cell number
Tested at: 10 µM
Time: 12 h
Setting: mean of 2 replicates
Baseline: plate mean
Direction: higher = more cells
Compound | nuclei count
NS(=O)(=O)c1ccc(NC(=O)Nc2ccc(F)cc2)cc1 | 2.95 z-score
O=C1c2ccccc2-c2nc3nonc3nc21 | -5.14 z-score
C[C@H](CCC(=O)O)[C@H]1CC[C@H]2[C@@H]3CC[C@@H]4C[C@H](O)CC[C@]4(C)[C@H]3CC[C@]12C | 0.13 z-score
CC[C@@H]1C(=O)OC[C@@H]1Cc1cncn1C | 1.12 z-score and -0.66 z-score
Cc1ccccc1C(OCCN(C)C)c1ccccc1 (stereo not shown) | 5.13 z-score
COc1c(C)cnc(Cn2cc(C#CCC(C)(C)O)c3c(Cl)nc(N)nc32)c1C | -1.78 z-score
CC(=O)Oc1ccccc1C(=O)Oc1ccccc1C(=O)O | 1.07 z-score
N#CC(c1ccccc1)(c1ccccc1)c1ccccc1Cl | 0.713 z-score

A few entries again (study 2):
target | remaining binding [%]
RET (Homo sapiens, UniProt P07949, V804L) | 100
ALK (Homo sapiens, UniProt Q9UM73, C1156Y) | 100
Cyclin-dependent kinase 4, with cyclin D1 (CDK4, Homo sapiens, UniProt P11802) | 100
MAP3K1 (Homo sapiens, UniProt Q13233) | 65
TLK1 (Homo sapiens, UniProt Q9UKI8) | 100
PAK2 (Homo sapiens, UniProt Q13177) | 100
LRRK2 (Homo sapiens, UniProt Q5S007, G2019S) | 100
HUNK (Homo sapiens, UniProt P57058) | 100
ACVR2B (Homo sapiens, UniProt Q13705) | 96
